Results gathered from unrelated publications.
A part holds a random share of what one study measured.

Sample 1
Target: Sal-like protein 4, full length isoform A (SALL4, Homo sapiens, UniProt Q9UJQ4, residues 1-1053)
Sequence of UniProt Q9UJQ4 (whole entry, looked up): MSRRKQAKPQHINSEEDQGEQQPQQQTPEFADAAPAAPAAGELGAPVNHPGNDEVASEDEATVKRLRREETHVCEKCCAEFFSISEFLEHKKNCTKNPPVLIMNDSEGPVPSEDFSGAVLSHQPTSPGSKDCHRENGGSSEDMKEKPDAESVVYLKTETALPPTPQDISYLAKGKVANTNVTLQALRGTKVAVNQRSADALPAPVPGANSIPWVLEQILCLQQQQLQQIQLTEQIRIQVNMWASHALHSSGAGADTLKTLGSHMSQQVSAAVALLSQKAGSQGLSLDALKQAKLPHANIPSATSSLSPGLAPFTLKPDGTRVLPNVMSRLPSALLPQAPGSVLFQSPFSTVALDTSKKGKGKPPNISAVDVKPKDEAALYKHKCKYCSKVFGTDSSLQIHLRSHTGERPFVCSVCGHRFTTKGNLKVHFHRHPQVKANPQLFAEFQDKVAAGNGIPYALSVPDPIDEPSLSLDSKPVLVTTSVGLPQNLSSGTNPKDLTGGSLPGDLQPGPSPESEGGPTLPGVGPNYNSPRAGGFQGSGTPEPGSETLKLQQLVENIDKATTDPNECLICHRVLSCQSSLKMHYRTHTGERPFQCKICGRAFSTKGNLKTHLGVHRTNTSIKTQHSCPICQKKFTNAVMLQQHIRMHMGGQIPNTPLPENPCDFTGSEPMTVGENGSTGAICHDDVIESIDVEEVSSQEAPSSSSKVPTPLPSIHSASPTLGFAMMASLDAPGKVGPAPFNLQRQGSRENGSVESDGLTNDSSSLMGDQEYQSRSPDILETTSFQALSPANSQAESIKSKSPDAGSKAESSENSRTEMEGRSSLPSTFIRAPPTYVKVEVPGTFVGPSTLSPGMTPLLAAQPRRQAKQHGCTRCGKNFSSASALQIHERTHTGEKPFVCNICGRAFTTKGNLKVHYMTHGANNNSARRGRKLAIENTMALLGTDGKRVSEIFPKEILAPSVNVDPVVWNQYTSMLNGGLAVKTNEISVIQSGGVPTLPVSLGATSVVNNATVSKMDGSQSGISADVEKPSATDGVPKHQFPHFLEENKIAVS
Technique: universal PBM
Form: double-stranded DNA, one strand shown
Matrix: in vitro
Tested at: 600 nM
Setting: 8-mer, flanks averaged, mean of replicates
Reading: higher = stronger binding
Oligonucleotide	E-score
ACACGTGC	-0.135
ACTATAAG	0.308
AGCTTGGG	-0.231
AGAGGCAG	-0.246
GACCTTCA	-0.111
ATTAACAC	0.311
AGAAGTGA	-0.00294
AAAGATCT	0.0471
ACTAGGTA	0.0914
CGCCGGAC	-0.368
ACGACTCT	0.018
AGATAACG	0.164
CTTAGGAA	0.135
AGTGCATA	0.167
CAAACGAC	0.0291
CCCTACGA	-0.0558
AAGCGCGC	-0.191
AGACCGGG	-0.348
AAAGGAGA	0.102
CTACGTAA	0.0803
AAGTGGCG	0.0166
TGTCCTAA	0.094
CTCCCCAA	-0.154

Sample 2
Target: TAR DNA-binding protein 43, full length, His tag (TARDBP, Homo sapiens, UniProt Q13148, residues 1-414)
Technique: RNA Bind-n-Seq
Form: RNA
Matrix: in vitro
Tested at: 20 nM
Setting: 6-mer, flanks averaged, single round
Added: 150 mM KCl
Baseline: input library
Reading: higher = stronger binding
Oligonucleotide	6-mer enrichment (R)
UCCCAG	0.701
UAACGA	0.635
AUCACA	0.601
GCUCGA	0.796
UAUGUU	0.774
CUGGAU	0.734
CCUAGG	0.97
CGCGAA	0.844
GUCCUU	0.661
AACGAG	0.97
CUUCUU	0.586
CCCCGC	0.66
GUUUGA	0.861
GUAUAU	0.703
AGUCAU	0.588
UCUGCC	0.617
CGAAAG	0.844

Sample 3
Target: Ras GTPase-activating protein-binding protein 1, RRM domain (G3BP1, Homo sapiens, UniProt Q13283)
Sequence of UniProt Q13283 (whole entry, looked up): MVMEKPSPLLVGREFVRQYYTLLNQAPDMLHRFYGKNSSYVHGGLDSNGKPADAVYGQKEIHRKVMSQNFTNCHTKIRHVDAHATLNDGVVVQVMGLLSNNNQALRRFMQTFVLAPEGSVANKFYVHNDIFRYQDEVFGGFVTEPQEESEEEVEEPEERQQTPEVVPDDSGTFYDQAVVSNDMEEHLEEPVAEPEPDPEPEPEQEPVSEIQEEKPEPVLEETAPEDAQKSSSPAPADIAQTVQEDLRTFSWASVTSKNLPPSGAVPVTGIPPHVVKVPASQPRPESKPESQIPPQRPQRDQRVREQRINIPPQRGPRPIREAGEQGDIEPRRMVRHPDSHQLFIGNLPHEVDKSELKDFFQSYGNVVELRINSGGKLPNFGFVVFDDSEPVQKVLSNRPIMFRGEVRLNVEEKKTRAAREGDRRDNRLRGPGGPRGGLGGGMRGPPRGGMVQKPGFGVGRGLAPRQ
Technique: RNA Bind-n-Seq
Form: RNA
Matrix: in vitro
Tested at: 1 µM
Setting: whole 134-nt RNA, ends assumed
Added: 150 mM KCl
Baseline: input library
Reading: higher = stronger binding
Oligonucleotide	log2 enrichment
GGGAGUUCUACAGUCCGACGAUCAAGUCCUGUGCUACACAUCGUAUGUACCGAAUCGGAAAAAAAGGUUUGGUUUUUGGAAAGUAUUAUGUUACGCCGUUCGGAUCUGCACUUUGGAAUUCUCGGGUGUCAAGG	-0.245
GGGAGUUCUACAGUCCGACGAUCCUGUGCUACACAUCGUAUGUACCGAAUCGGGGCCCCCCCGGCCCCCCCGGGGCCCCCCCGGGAAAGUAUUAUGUUACGCCGUUCGGAUCUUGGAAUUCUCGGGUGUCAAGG	-0.56
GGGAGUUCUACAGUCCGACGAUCGUCCUGUGCUACACAUCGUAUGUACCGAAUCGGGUUUGGGAAAAAAAGGGAAAAAGGGAAAGUAUUAUGUUACGCCGUUCGGAUCUGCACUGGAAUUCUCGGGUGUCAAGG	0.304
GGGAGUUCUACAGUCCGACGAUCCAAGUCCUGUGCUACACAUCGUAUGUACCGAAUCAAAUUUAAAUUUAAAUUUAAAAAAGUAUUAUGUUACGCCGUUCGGAUCUGCACUUCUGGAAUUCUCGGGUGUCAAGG	-0.345
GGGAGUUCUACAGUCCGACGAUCUGGCCCUGGUGGCAUGCGGGGAGGAAGAGGUGGCCUCAUGGAUCGUGGUGGUCCCGGGGGAAUGUUCAGAGGUGGCCGUGGUGGAGACAGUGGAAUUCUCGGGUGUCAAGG	0.947
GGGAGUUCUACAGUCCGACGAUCGUCAAGAAAGAUCUUAAGACUGGUCAUUCAAAGGGGUUUGGCUUUGUUCGUUUUACGGAAUAUGAAACACAAGUGAAAGUAAUGUCACAGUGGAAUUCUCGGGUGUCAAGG	-0.0969
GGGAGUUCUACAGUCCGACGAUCCUCAAGUCCUGUGCUACACAUCGUAUGUACCGAAUCGGGGCCGGCCGGCCGGGGAAAGUAUUAUGUUACGCCGUUCGGAUCUGCACUUCCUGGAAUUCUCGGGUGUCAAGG	-0.448
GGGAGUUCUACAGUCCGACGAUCGUCCUGUGCUACACAUCGUAUGUACCGAAUCGGGGUUUUUGGGGAAAGGGGUUUGGGGAAAGUAUUAUGUUACGCCGUUCGGAUCUGCACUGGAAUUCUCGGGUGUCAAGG	1.4
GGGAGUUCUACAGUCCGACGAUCCAAGUCCUGUGCUACACAUCGUAUGUACCGAAUCGGGGAAAGGGAAAGGGAAAGGAAAGUAUUAUGUUACGCCGUUCGGAUCUGCACUUCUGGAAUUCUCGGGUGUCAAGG	-0.149
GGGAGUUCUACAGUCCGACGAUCAAGUCCUGUGCUACACAUCGUAUGUACCGAAUCGGGUUUUUGGGUGGGAAAAAGGGAAAGUAUUAUGUUACGCCGUUCGGAUCUGCACUUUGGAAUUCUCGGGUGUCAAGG	0.502

Sample 4
Target: Protein C-ets-1 (ETS1, Homo sapiens, UniProt P14921, residues 1-441, full length assumed)
Technique: protein-binding microarray
Form: double-stranded DNA, one strand shown
Matrix: in vitro
Tested at: not given
Setting: k-mer, scored over probes, only values ≥0.25
Reading: higher = stronger binding
Target sequence (chain): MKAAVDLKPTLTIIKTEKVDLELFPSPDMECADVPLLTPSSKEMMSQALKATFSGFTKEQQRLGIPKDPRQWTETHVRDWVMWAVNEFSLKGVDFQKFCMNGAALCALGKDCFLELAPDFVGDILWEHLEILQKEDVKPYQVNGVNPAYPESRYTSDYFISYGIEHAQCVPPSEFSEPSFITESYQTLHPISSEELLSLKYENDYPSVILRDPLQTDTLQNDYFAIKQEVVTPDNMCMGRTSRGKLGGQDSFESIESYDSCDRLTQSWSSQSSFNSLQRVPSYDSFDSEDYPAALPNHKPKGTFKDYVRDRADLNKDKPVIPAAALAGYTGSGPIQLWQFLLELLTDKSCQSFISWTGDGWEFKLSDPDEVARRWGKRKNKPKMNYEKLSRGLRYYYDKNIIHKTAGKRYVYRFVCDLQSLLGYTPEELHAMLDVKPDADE
Oligonucleotide	E-score
GAGCGGAA	0.461
GCCCGGAA	0.463
AGGAGGAA	0.347
GTGACGGA	0.301
ACAGGAAA	0.479
GAGCTTCC	0.406
GCGCGGAA	0.304
AAGGGAAG	0.367
CACCGGAC	0.424
GAGGAAAC	0.415
CGTTTTCC	0.294
CGGAAAAC	0.373
GGAAATTA	0.428
AGTACCGG	0.307

Sample 5
Target: Histone acetyltransferase KAT6A, winged helix 2, GST fusion (KAT6A, Homo sapiens, UniProt Q92794, residues 85-181)
Technique: protein binding microarray
Form: double-stranded DNA, one strand shown
Matrix: in vitro
Tested at: not given
Setting: 8-mer, flanks averaged, mean of 2 arrays, mostly near background
Baseline: not given
Reading: higher = stronger binding
Residues (chain): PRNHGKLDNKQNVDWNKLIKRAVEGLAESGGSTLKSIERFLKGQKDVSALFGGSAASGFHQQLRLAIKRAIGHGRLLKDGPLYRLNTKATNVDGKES
Oligonucleotide	E-score
GATTGGGC	0.168
ACGTATTA	-0.00364
CCGAAAAG	0.0505
CAATCCAC	-0.0212
ACAGGAAC	-0.0287
ACAGTTTC	0.0641
TAGGCACA	-0.0194
GGCTCATA	-0.151
CCACTATC	-0.116
ACTCATAG	-0.184
CTATAAGC	-0.132
ACCAAGGC	-0.0742
AGCGAGTC	-0.0723
CTCGGTGC	0.111
AAACTTCA	-0.0635
AGAGCGAG	0.124
AGTTCAAT	-0.232
AAAGTCTT	-0.281
CCGCGTAG	0.166
CAGATGCG	0.104
ACTTAGTC	-0.221
AAGCGTGG	-0.0679
AGGACCGG	-0.0592
ACCTGCAA	0.0108
CATCTGAG	-0.0433

Sample 6
Target: Interferon regulatory factor 5, full length, phosphomimetic (IRF5, Homo sapiens, UniProt Q13568-2, residues 1-514, K96S/S451D/S453D/S456D/S462D)
Technique: protein-binding microarray
Form: double-stranded DNA, one strand shown
Matrix: in vitro
Tested at: 250 nM
Setting: 60-bp whole probe
Added: salmon DNA 0.4 mg/ml
Baseline: random background probes
Reading: higher = stronger binding
All sequences stand within: GCCTAGCAC … GTCTTGATTCGCTTGACGCTGCTG
Oligonucleotide	log fluorescence [z-score]
TTAGGACTGGACACTGGGTTCGTGCTA	-0.596
TTAGGACTTGGTCTCGGTTAGTGCTAG	0.589
TTAGGTACCGACACTGGGTTAGTGCTA	-0.0381
TTACATTTCAGTTCCGATTAGTGCTAG	3.32
GACGATATCGGGTATCGAGAAGTGCTA	3.01
ATAGATTTCAGTATCGATTAGTGCTAG	8.38
GACGGTTTGGGGTATCGGGACGTGCTA	0.222
GACGGTTTCCTGTCCCTGACGTGCTAG	0.206
ACTCGTTTACATTTTCCAAAGTGCTAG	0.736
TCACTTTTTTTTTTCCCACTGTGCTAG	1.12
TTACGACTGGGGTATCGGTTAGTGCTA	3.28
TTAGGTATCGGGTCTGGGTTAGTGCTA	2.96
TCAAGAGTAGCTTTCTGACTGTGCTAG	0.442
TTAGATTTCAGATTCGATTAGTGCTAG	1.68
CCGAGTCCCTATCTCCTCACGTGCTAG	0.0138
AAGGAAGGACCATCCAGAGAGTGCTAG	-0.483
GAAGGACTGCTTTTCCTGACGTGCTAG	-0.159

Excerpt of the above (sample 5):
Oligonucleotide	E-score
AAACTTCA	-0.0635
AGAGCGAG	0.124
AGTTCAAT	-0.232
AAAGTCTT	-0.281
CCGCGTAG	0.166
CAGATGCG	0.104
ACTTAGTC	-0.221
AAGCGTGG	-0.0679
AGGACCGG	-0.0592
